# Experimental data from different studies.
# ± gives the spread as reported.
# SOST: Sclerostin (SOST, Homo sapiens, UniProt Q9BQB4)
# BCL2L1: Bcl-2-like protein 1 (BCL2L1, Homo sapiens, UniProt Q07817)
# LGALS3: Galectin-3 (LGALS3, Homo sapiens, UniProt P17931)
# PPIA: Peptidyl-prolyl cis-trans isomerase A (PPIA, Homo sapiens, UniProt P62937)
Compound,target,assay,setting,Kd
COc1cccc(C(=O)N[C@H]2[C@@H](O)[C@@H](CO)O[C@@H](S[C@@H]3O[C@H](CO)[C@H](O)[C@H](NC(=O)c4cccc(OC)c4)[C@H]3OS(=O)(=O)O)[C@@H]2O)c1,"Galectin-3 (LGALS3, Homo sapiens, UniProt P17931, R144S)","cell-free assay, FP",,0.55 µM
CC(=O)N[C@@H]1[C@@H](O[C@@H]2O[C@H](C(=O)O)[C@@H](O[C@@H]3O[C@H](CO)[C@@H](O)[C@H](O[C@@H]4O[C@H](C(=O)O)[C@@H](OS(=O)(=O)O)[C@H](OS(=O)(=O)O)[C@H]4OS(=O)(=O)O)[C@H]3NC(C)=O)[C@H](OS(=O)(=O)O)[C@H]2OS(=O)(=O)O)[C@H](O)[C@@H](CO)O[C@H]1N=[N+]=[N-],SOST,"ligand displacement, FP",,14 µM
C[n+]1cc2cc3cc(ccc31)NC(=O)CCCCC(=O)Nc1ccc3c(c1)cc(c[n+]3C)C(=O)NCc1cccc(c1)CNC2=O,c-KIT cKIT2 G-quadruplex DNA,thiazole orange displacement,added: 0.50 µM thiazole orange,0.57 ± 0.01 µM
CC[C@H](C)[C@H](NC(=O)[C@H](CCCNC(=N)N)NC(=O)[C@H](CCCCN)NC(=O)[C@H](CC(C)C)NC(=O)[C@H](CCC(=O)O)NC(=O)[C@H](CCC(N)=O)NC(=O)[C@H](C)NC(=O)[C@@H](NC(=O)[C@H](Cc1c[nH]c2ccccc12)NC(=O)[C@@H](NC(=O)[C@H](CCC(=O)O)NC(=O)[C@@H]1CCCN1C(=O)[C@H](CCCNC(=N)N)NC(C)=O)[C@@H](C)CC)C(C)C)C(=O)NCC(=O)N[C@@H](CC(=O)O)C(=O)N[C@@H](CCC(=O)O)C(=O)N[C@@H](Cc1ccccc1)C(=O)N[C@@H](CC(N)=O)C(=O)N[C@@H](C)C(=O)N[C@@H](Cc1ccc(O)cc1)C(=O)N[C@@H](Cc1ccc(O)cc1)C(=O)N[C@@H](C)C(=O)N[C@@H](CCCNC(=N)N)C(=O)N[C@@H](CCCNC(=N)N)C(=O)N[C@H](C(=O)N[C@@H](Cc1ccccc1)C(=O)N[C@@H](CC(C)C)C(=O)N[C@@H](CC(N)=O)C(N)=O)C(C)C,BCL2L1,"binding, flow cytometry",pH 8,0.00018 µM
CC(C)C[C@H](NC(=O)[C@H](Cc1ccc(O)cc1)NC(=O)[C@@H](CCCNC(=N)N)NC(=O)[C@@H](CO)NC(=O)[C@H](Cc1ccccc1)NC(=O)[C@H](CC1CCCCC1)NC(=O)[C@@H](N)CC(=O)O)C(=O)N[C@@H](Cc1c[nH]c2ccccc12)C(=O)N[C@@H](CO)C(=O)O,"Urokinase plasminogen activator surface receptor (Homo sapiens, UniProt Q03405)","binding, surface plasmon resonance",,0.012 µM
CC[C@H](C)[C@H](NC(=O)[C@H](Cc1c[nH]c2ccccc12)NC(=O)[C@@H](NC(=O)[C@H](CCC(=O)O)NC(=O)[C@@H]1CCCN1C(=O)[C@H](CCCNC(=N)N)NC(C)=O)[C@@H](C)CC)C(=O)N[C@@H](C)C(=O)N[C@@H](CCC(N)=O)C(=O)N[C@@H](CCC(=O)O)C(=O)N[C@@H](CC(C)C)C(=O)N[C@@H](CCCNC(=N)N)C(=O)N[C@@H](CCCNC(=N)N)C(=O)N[C@@H](C)C(=O)NCC(=O)N[C@@H](CCCCN)C(=O)N[C@H](C(=O)N[C@@H](CC(C)C)C(=O)N[C@@H](CC(N)=O)C(=O)N[C@@H](C)C(=O)N[C@@H](Cc1ccc(O)cc1)C(=O)N[C@@H](Cc1ccc(O)cc1)C(=O)N[C@@H](C)C(=O)N[C@@H](CCCNC(=N)N)C(N)=O)C(C)C,BCL2L1,"binding, fluorescence polarization","pH 7.8, 37 °C",> 1 µM
CC(C)C1=CC23CCC4C(C)(C(=O)O)CCCC4(C)C2CC1C(C(=O)O)C3C(=O)O (stereo not drawn),"Replication protein A 70 kDa DNA-binding subunit, lacking DBD-F (RPA1, Homo sapiens, UniProt P27694)",tryptophan fluorescence quenching,,> 400 µM
Cc1ncsc1-c1ccc(C2(NC(=O)C3CC(O)CN3C(=O)C(NC(=O)c3ccc(COc4c(-c5c(C)c(F)cc6[nH]ncc56)c(C5CC5)cc5c(N6CC7CC6CN7)nc(OC6CCOCC6)nc45)cc3)C(C)C)CC2)cc1 (stereo not drawn),"von Hippel-Lindau disease tumor suppressor, with Elongin B/C (VHL, Homo sapiens, UniProt P40337)",SPR,binary,0.714 µM
COc1ccc2nc3cc(Cl)ccc3c(NCCCCNc3nc(N)nc(N)n3)c2c1,DNA duplex with (CCTG)2 step,"binding, ITC",binding site 1,14 µM
CCc1cc2c3c(c1CC)O[C@H](CO)[C@H](O)[C@@H]3OC2,"Galectin-4, C-terminal domain (LGALS4, Homo sapiens, UniProt P56470)","binding, competitive fluorescence polarization",20 °C,3700 ± 650 µM
Cc1ccc(Oc2nc3cc(-c4ccc5c(ccn5C)c4)c(Cl)cc3[nH]2)cc1C(=O)O,"PRKAB2/PRKAA1, gamma1; phosphorylated (Homo sapiens, UniProt O43741+Q13131)","binding, circular dichroism titration",α1β2γ1 complex,1.18 µM
C#CCNC(=O)[C@]12CCC(C)[C@H](C)C1C1=CCC3[C@@]4(C)CC[C@H](O[C@@H]5O[C@H](CO)[C@H](O)[C@H](O)[C@H]5O)C(C)(C)C4CC[C@@]3(C)[C@]1(C)CC2 (stereo partly drawn),"HSP90AB1 (Homo sapiens, UniProt P08238)","binding, SPR",,11.7 µM
Nc1ncnc2c1ncn2[C@@H]1O[C@H](CO)[C@@H](O[C@H]2O[C@H](CO)[C@@H](OP(=O)(O)O)[C@H](OP(=O)(O)O)[C@H]2O)[C@H]1O,"Inositol 1,4,5-trisphosphate-gated calcium channel ITPR1, IP3-binding core (Itpr1, Rattus norvegicus, UniProt P29994, R504Q)","binding, 3H-IP3 competition",IP3-binding core IBC^R504Q,0.308 µM
CC[C@H](C)[C@H](NC(=O)[C@@H](NC(=O)[C@H](Cc1ccc(O)cc1)NC(=O)[C@H](Cc1ccc(O)cc1)NC(=O)[C@H](CC(N)=O)NC(=O)[C@H](CCC(=O)O)NC(=O)[C@H](Cc1ccccc1)NC(=O)[C@@H](NC(=O)[C@H](CO)NC(=O)[C@H](CCC(=O)O)NC(=O)[C@H](CCCCN)NC(=O)[C@H](Cc1ccccc1)NC(=O)[C@@H](N)CCCCN)C(C)C)C(C)C)C(=O)N[C@@H](Cc1ccc(O)cc1)C(=O)N[C@@H](CO)C(=O)N[C@@H](CO)C(=O)N[C@@H](CCSC)C(=O)N[C@@H](CC(C)C)C(=O)N[C@@H](Cc1ccc(O)cc1)C(=O)N[C@@H](CCCNC(=N)N)C(N)=O,"Fibroblast growth factor 14 (Homo sapiens, UniProt Q92915)",binding,,1 µM
COc1c(F)c(F)c(C(=O)N[C@H]2[C@@H](O)[C@@H](CO)O[C@@H](S[C@@H]3O[C@H](CO)[C@H](O)[C@H](NC(=O)c4c(F)c(F)c(OC)c(F)c4F)[C@H]3OS(=O)(=O)O)[C@@H]2O)c(F)c1F,LGALS3,"cell-free assay, FP",,0.21 µM
O=C(N[C@@H](Cn1cncn1)c1ccc(Cl)cc1Cl)c1ccc(-c2nnc(-c3ccccc3)o2)cc1,"CYP51 (Trypanosoma cruzi, UniProt Q7Z1V1)","binding, absorbance",,0.15 µM
Cc1ccc(C(=O)Nc2ccc(S(=O)(=O)O)c3cccc(S(=O)(=O)O)c23)cc1NC(=O)c1cccc(N)c1,"E3 ubiquitin-protein ligase XIAP, BIR1 domain (XIAP, Homo sapiens, UniProt P98170)",microscale thermophoresis,24 °C,553 ± 140 µM
CS[C@@H]1O[C@H](COS(=O)(=O)O)[C@@H](OS(=O)(=O)O)[C@H](O[C@@H]2O[C@H](C(=O)O)[C@@H](O[C@@H]3O[C@H](COS(=O)(=O)O)[C@@H](OS(=O)(=O)O)[C@H](O[C@@H]4O[C@H](C(=O)O)[C@@H](OS(=O)(=O)O)[C@H](OS(=O)(=O)O)[C@H]4OS(=O)(=O)O)[C@H]3NC(C)=O)[C@H](OS(=O)(=O)O)[C@H]2OS(=O)(=O)O)[C@H]1NC(C)=O,SOST,"ligand displacement, FP",,37.3 µM
O=C(O)C1OC(OC2C(C(=O)O)OC(OC3C(C(=O)O)OC(OC4C(C(=O)O)OC(OC5C(C(=O)O)OC(O)C(O)C5O)C(O)C4O)C(O)C3O)C(O)C2O)C(O)C(O)C1O (stereo not drawn),"Beta-lactoglobulin (LGB, Bos taurus, UniProt P02754, A134V/G80D)",STD NMR titration,"pH 2.65, 37 °C, added: protein 20 µM",228 ± 30 µM
Cc1noc(NS(=O)(=O)c2ccc(NC(=O)c3cc(-c4cccc(Cl)c4)nc4ccccc34)cc2)c1C,PPIA,"binding, SPR",pH 7.4,52.3 µM
O=[N+]([O-])c1cc(Br)cc([N+](=O)[O-])c1NS(=O)(=O)c1ccc(Br)cc1,"PYR1 (Arabidopsis thaliana, UniProt O49686, R116A)",isothermal titration calorimetry,outcome: no binding,no binding
CCc1nc2cc3ccccc3cc2cc1C(=O)N1CCC[C@H]1C(=O)N[C@@H](CCC/C=C/CCC[C@H](NC(=O)[C@@H]1CCCN1C(=O)c1cc2cc3ccccc3cc2nc1CC)C(=O)N[C@@H](CCCCN)C(=O)NCCCN)C(=O)N[C@@H](CCCCN)C(=O)NCCCN,(CUG)10 RNA,"binding, fluorescence titration",,0.057 ± 0.001 µM
O=C(O)COc1ccccc1Cl,"PIN8 (Arabidopsis thaliana, UniProt Q9LFP6)",cell-free assay,,106 µM
COc1c(F)c(F)c(C(=O)N[C@H]2[C@@H](O)[C@@H](CO)O[C@@H](OC)[C@@H]2OS(=O)(=O)O)c(F)c1F,LGALS3,"cell-free assay, FP",,65 µM
CC(=O)O[C@H]1OC[C@@H]2C=C([C@@]3(C)CCCC(C)(C)C3)CC[C@H]12,PPIA,"binding, SPR",pH 4.5,~3 µM
CC[C@H](C)[C@H](NC(=O)[C@H](CCC(=O)O)NC(=O)[C@H](CCCNC(=N)N)NC(=O)[C@H](C)NC(=O)[C@H](Cc1c[nH]c2ccccc12)NC(=O)[C@H](CCC(N)=O)NC(=O)[C@H](CCC(=O)O)NC(=O)[C@H](CCC(=O)O)NC(C)=O)C(=O)NCC(=O)N[C@@H](C)C(=O)N[C@@H](CCC(N)=O)C(=O)N[C@@H](CC(C)C)C(=O)N[C@@H](CC(=O)O)C(=O)N[C@@H](CCCNC(=N)N)C(=O)N[C@@H](CCSC)C(=O)N[C@@H](C)C(=O)N[C@@H](CC(=O)O)C(=O)N[C@@H](CC(=O)O)C(=O)N[C@@H](CC(C)C)C(=O)N[C@@H](CC(N)=O)C(=O)N[C@@H](C)C(=O)N[C@@H](CCC(N)=O)C(=O)N[C@@H](Cc1ccc(O)cc1)C(=O)N[C@@H](CCC(=O)O)C(=O)N[C@@H](CCCNC(=N)N)C(=O)N[C@@H](CCCNC(=N)N)C(=O)N[C@@H](CCCNC(=N)N)C(=O)N[C@@H](CCC(N)=O)C(N)=O,BCL2L1,competitive fluorescence polarization,added: fluorescein-labelled peptide 10 nM,0.29 µM
CN(C)c1ccc2c(-c3ccc(C(=O)NCCCC[C@@H](NC(=O)[C@@H](CCCNC(=N)N)NC(=O)[C@@H](CCCNC(=N)N)NC(=O)[C@@H](CCCNC(=N)N)NC(=O)[C@@H](CCCNC(=N)N)NC(=O)[C@@H](CCCNC(=N)N)NC(=O)[C@@H](CCCNC(=N)N)NC(=O)CCCCCNC(=O)[C@@H](CCCNC(=N)N)NC(=O)CCCCCNC(=O)c4ccc(-c5ccnc(N)n5)s4)C(N)=O)cc3C(=O)[O-])c3ccc(=[N+](C)C)cc-3oc2c1,"cGMP-dependent protein kinase 1, isoform alpha (PRKG1, Homo sapiens, UniProt Q13976)","binding, fluorescence anisotropy",no cGMP and Mg2+,0.0127 µM

# Repeated from above:
Compound,target,assay,setting,Kd
CC(=O)O[C@H]1OC[C@@H]2C=C([C@@]3(C)CCCC(C)(C)C3)CC[C@H]12,PPIA,"binding, SPR",pH 4.5,~3 µM
Cc1ncsc1-c1ccc(C2(NC(=O)C3CC(O)CN3C(=O)C(NC(=O)c3ccc(COc4c(-c5c(C)c(F)cc6[nH]ncc56)c(C5CC5)cc5c(N6CC7CC6CN7)nc(OC6CCOCC6)nc45)cc3)C(C)C)CC2)cc1 (stereo not drawn),"von Hippel-Lindau disease tumor suppressor, with Elongin B/C (VHL, Homo sapiens, UniProt P40337)",SPR,binary,0.714 µM
COc1c(F)c(F)c(C(=O)N[C@H]2[C@@H](O)[C@@H](CO)O[C@@H](S[C@@H]3O[C@H](CO)[C@H](O)[C@H](NC(=O)c4c(F)c(F)c(OC)c(F)c4F)[C@H]3OS(=O)(=O)O)[C@@H]2O)c(F)c1F,LGALS3,"cell-free assay, FP",,0.21 µM
COc1c(F)c(F)c(C(=O)N[C@H]2[C@@H](O)[C@@H](CO)O[C@@H](OC)[C@@H]2OS(=O)(=O)O)c(F)c1F,LGALS3,"cell-free assay, FP",,65 µM
